Measurements collected from several papers.
A part holds a random share of what one study measured. Changes are numbered by the printed parent chain.

Sample 1 — target: CCNE2, cyclin fold, Cln2 fusion (human); technique: yeast growth competition, sequencing; sample: yeast; setting: weak parent motif; reference: not given; reading: higher = stronger binding
Starting sequence: WEE2 docking peptide (human); KELRQKLNFSYCE; partner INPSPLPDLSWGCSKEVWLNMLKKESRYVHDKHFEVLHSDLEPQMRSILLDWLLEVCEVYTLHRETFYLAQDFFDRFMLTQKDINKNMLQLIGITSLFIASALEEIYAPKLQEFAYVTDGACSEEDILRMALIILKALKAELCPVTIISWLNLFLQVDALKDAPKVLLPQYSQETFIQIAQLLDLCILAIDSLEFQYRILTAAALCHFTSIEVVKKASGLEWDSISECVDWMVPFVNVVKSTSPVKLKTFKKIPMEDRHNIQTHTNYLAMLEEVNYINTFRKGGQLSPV
| Substitution | normalised enrichment score |
| --- | --- |
| KELRQKLNASYCE [F9A] | 0.427 |
| AELRQKLNFSYCE [K1A] | -0.199 |
| KELRQKLAFSYCE [N8A] | 0.494 |
| KEARQKLNFSYCE [L3A] | 0.016 |
| KALRQKLNFSYCE [E2A] | 0.331 |
| KELAQKLNFSYCE [R4A] | -0.0273 |
| KELRQKLNFSYCA [E13A] | 0.298 |

Sample 2 — technique: RNA Bind-n-Seq; form: RNA; sample: in vitro; concentration: not given; reference: input RNA pool; reading: higher = stronger binding
Target: RING finger protein unkempt homolog, zinc fingers 1-6, GST-SBP tag (UNK, Homo sapiens, UniProt Q9C0B0, residues 30-357)
Setting: RNA with constant flanks, human-mouse chimeric sites, ends assumed
Shared flanks, not repeated: GGGAGUUCUACAGUCCGACGAUC … CAACAGAGGAUUGAGCAUCA
Target sequence (chain): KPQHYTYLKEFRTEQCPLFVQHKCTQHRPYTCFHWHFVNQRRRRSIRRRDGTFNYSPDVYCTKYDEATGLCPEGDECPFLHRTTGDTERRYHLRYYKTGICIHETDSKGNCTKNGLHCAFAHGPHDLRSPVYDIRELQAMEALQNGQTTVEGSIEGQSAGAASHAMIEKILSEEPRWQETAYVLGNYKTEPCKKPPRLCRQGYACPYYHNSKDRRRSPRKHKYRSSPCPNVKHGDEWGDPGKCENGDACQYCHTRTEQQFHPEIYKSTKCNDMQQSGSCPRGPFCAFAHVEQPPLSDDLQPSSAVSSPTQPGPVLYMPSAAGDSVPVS
| Sequence | bound/input enrichment [ratio] |
| --- | --- |
| AAAGAACUUGCUGAUGAUGAAGAUGAGGAAGACAAUGAUGAUGUUGAACCCAUUUCUGAAUUUCGAUUUGUGCCCAGUGAUAAGUCAGCGUUGGAGGCGAUGUUCACAGCAAUGUGUGAG | 0.315 |
| GUUCGGCUCUGGGAUCAUGCCACAAUGACAGAAGUGAAAUCUCUGAAUUUUAAUAUGUCUGUUAGCAGCAUGGAGUAUAUUCCUGAGGGAGAGAUUUUGGUUAUUACUUAUGGACGAUCU | 0.386 |
| UCGGAUGCUGUGCUGGGUCACUUUUCAUAUCCUGAUCCUUCACAGUGGACAGAUGAAGAAUUAGGUAUCCCUCCUGAUGACGAGGACUGACACUGUAAACUCUCUGGACGAGUAGGAGCA | 0.587 |
| AAAGUGAUGACUAUGUUUGUCCAACGACAGGUGUUUGCUGAGAACAAAGAUGAGAUUGCGUUAGUCCUCUAUGGCACAGAUGGCACUGAUAAUGCCCUUGCUGGCAAGGACCAGUAUCAG | 0.0841 |
| UAAGUCCUGUGCCAGCACUUCGCUCAUAAAGUUUUAAAUUCUGGACCAAUAGUGUUUGUUUCCUGAUUAUUGUAUCCAAUACUUUGCCUAGUAUGUAACUCAUGCUUACUGAUAAUAAAA | 0.583 |
| UAAAUCCUGUGCCAGCACUUCGCUCAUAAAGUUUUAAAUUCUGGACCAAUAGUGUUUGUUUCCUGAUUUUUGUAUUCAAUACUUUGCCUAGUAUGUAACUCACUCUUACUGAUAAUAAAA | 0.974 |
| UCUUAACUUAUUCAUUUAACUUAUUUUUAUAGCUAGAUAAAUAUUGUUAGUCUUAGACAAUAGCUCACAUUUUUUGAGAAGCAUGCCCUCCCUAUCCAUUUGUCUUACAAUAACACUCAG | 6.64 |
| CAGGGCACAGCACCUACCCCCUCCUCCUUUCCACACCUGCAAACUCUUUUACUUGGGCUGAAUAUUUAGUGUAAUUACAUCUCAGCUUUGAGGGCUCCUGUGGCAAAAUACCCGGAUAAA | 0.783 |
| UCGGAUGCUGUGCUGGGUCACUUUUCAUAUCCUGAUCCUUCACAGUGGACAGAUGAAGAACUGGGAAUCCCUCCUGAUGAUGAAGACUGACACUGUAAACUCUCUGGACGAGUAGGAGCA | 0.41 |
| GGACCAUAAUCAUGGAGGACAUAAUGCAGCUCCCCAAAGCGCGCGUCAACGCCAGCAUGUUACCACAGUAUAUCGACCGGCCCGUGUGCUUCGUGGGGAGGCUGGAAAAGAUUCAUCCCA | 0.134 |
| UGUAGUUUCGCGGUUCAGGCUUUGUGUUGUAUUUACUUACGGUAUUAAAUUAUUAUUCUGCUUAGCUUAUAAUAAGGAUAAUUGCAUUUAAAGAGGUUACUGAAUGUUACUCUGAAACUU | 0.263 |

Sample 3 — technique: protein binding microarray; form: double-stranded DNA, one strand shown; sample: in vitro; concentration: not given; reference: not given; reading: higher = stronger binding
Target: Histone acetyltransferase KAT6A, both winged helices, GST fusion (KAT6A, Homo sapiens, UniProt Q92794, residues 1-181)
Setting: 8-mer, flanks averaged, mean of 2 arrays, mostly near background
Target sequence (chain): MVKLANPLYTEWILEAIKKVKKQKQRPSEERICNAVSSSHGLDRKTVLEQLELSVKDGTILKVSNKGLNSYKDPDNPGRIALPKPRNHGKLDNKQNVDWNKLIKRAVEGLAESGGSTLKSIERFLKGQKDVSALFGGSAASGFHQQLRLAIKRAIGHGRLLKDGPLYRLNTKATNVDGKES
| Sequence | E-score |
| --- | --- |
| GTACTGAA | 0.0355 |
| CGCAGATC | 0.126 |
| CCAGTGCC | -0.0918 |
| CAAGAGTG | -0.166 |
| ACGGTTAC | 0.204 |
| GAGATGGA | -0.175 |
| CCCCGCAG | 0.148 |
| GGATGGCC | -0.0393 |
| GATGTTAC | 0.0258 |
| CTAGTAGC | -0.00708 |
| CTGTTCCC | 0.0282 |
| CACATGAG | -0.0428 |
| TGGGGCAA | -0.209 |
| GACAGATC | -0.0355 |
| TCTGAGAA | -0.173 |
| CCACTGTA | -0.079 |
| CATGCCAG | -0.137 |
| TAAATAGA | 0.0714 |
| GTCGCGAA | 0.216 |
| GCCCAAAC | -0.0157 |
| CCCAACGA | -0.0732 |
| GGTCACCA | -0.0956 |
| ATGGAACA | -0.2 |
| CTTGTCAC | -0.0178 |
| CAATAACA | -0.0971 |

Sample 4 — technique: DHFR PCA, deep sequencing; sample: yeast; added: (+)-ABA 58 µM; reference: wild-type fitted maximum; reading: higher = stronger binding
Target: ABI1, truncated, D143A, DHFR fusion (Arabidopsis thaliana)
Setting: methotrexate growth selection, single substitutions
Starting sequence: PYL1, truncated, DHFR fusion (Arabidopsis thaliana); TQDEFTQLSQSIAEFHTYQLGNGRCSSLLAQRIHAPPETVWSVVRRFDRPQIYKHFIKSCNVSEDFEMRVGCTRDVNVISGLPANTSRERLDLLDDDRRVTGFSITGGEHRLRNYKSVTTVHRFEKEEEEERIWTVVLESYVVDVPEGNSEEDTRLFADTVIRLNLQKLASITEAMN; partner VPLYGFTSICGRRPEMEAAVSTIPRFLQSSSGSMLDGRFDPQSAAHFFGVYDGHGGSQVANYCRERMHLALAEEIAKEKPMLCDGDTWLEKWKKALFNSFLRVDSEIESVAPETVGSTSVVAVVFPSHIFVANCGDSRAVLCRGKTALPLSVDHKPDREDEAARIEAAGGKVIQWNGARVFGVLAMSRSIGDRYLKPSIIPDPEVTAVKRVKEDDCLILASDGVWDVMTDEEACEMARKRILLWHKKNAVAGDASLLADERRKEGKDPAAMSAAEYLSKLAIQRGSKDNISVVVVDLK
| Substitution | relative binding score [%] |
| --- | --- |
| R32F | 63.3 |
| T120S | 99 |
| K116S | 90.3 |
| V43E | 3.01 |
| A170Q | 78.2 |
| T86H | 84.1 |
| N149T | 59.6 |
| R24K | 92 |
| A158D | 8.42 |
| D159A | 41.3 |
| F66P | 62.9 |
| I52G | 67.4 |
| K116L | -2.07 |
| L93G | 11 |
| E67R | 79.6 |
| R32M | 81.5 |
| R74T | 3.83 |
| A175E | 81.9 |
| S117F | -1.58 |
| E64D | 88.5 |
| D65M | 74.2 |
| T135D | 5.29 |
| L28H | 15.5 |
| L94C | 61.1 |
| A13M | 76.7 |

Sample 5 — technique: RNA Bind-n-Seq; form: RNA; sample: in vitro; concentration: 200 nM; setting: whole 134-nt RNA, ends assumed; added: 150 mM KCl; reference: input library; reading: higher = stronger binding
Target: Ras GTPase-activating protein-binding protein 1, full length (G3BP1, Homo sapiens, UniProt Q13283)
UniProt Q13283, sequence (whole entry, looked up): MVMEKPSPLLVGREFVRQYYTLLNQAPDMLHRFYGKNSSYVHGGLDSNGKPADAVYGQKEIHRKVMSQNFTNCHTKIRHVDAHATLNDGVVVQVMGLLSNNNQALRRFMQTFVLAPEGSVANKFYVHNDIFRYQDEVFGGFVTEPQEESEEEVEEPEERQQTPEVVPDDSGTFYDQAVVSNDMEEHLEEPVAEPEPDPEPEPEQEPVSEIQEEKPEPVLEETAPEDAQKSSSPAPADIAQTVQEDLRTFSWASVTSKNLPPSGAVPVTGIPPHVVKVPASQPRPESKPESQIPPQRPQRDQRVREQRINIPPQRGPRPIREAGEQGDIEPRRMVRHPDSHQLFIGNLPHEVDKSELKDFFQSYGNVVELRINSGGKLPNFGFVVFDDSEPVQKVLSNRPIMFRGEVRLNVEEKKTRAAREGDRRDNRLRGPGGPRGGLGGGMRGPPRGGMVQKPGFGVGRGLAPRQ
Shared flanks, not repeated: GGGAGUUCUACAGUCCGACGAUC … UGGAAUUCUCGGGUGUCAAGG
| Sequence | log2 enrichment |
| --- | --- |
| CUCAAGUCCUGUGCUACACAUCGUAUGUACCGAAUCGGGUUGGGUUGGGUUGGGAAAGUAUUAUGUUACGCCGUUCGGAUCUGCACUUCC | 1.05 |
| AAGUCCUGUGCUACACAUCGUAUGUACCGAAUCGGGGAAAGGGAAAGGGGAAAGGGGAAAGUAUUAUGUUACGCCGUUCGGAUCUGCACU | 0.257 |
| AGUCCUGUGCUACACAUCGUAUGUACCGAAUCGGGGUUUUGGGUUUUGGGUUUUGGGAAAGUAUUAUGUUACGCCGUUCGGAUCUGCACU | -0.147 |
| CCUGUGCUACACAUCGUAUGUACCGAAUCGGGGUUUUUGGGGAAAAAGGGGAAAAAGGGGAAAGUAUUAUGUUACGCCGUUCGGAUCUGC | 0.134 |
| UCUAUCCUGUCCCUCCACCCCACCCUCCACCUCAAUCCCCUCCCAUCUUCCCCAGACCUACCUCACCUACUAGGACCUGAGGCAGCUCCU | 0.627 |
| CCUCAAGUCCUGUGCUACACAUCGUAUGUACCGAAUCGGUUGGUUGGGUUGGAAAGUAUUAUGUUACGCCGUUCGGAUCUGCACUUCCAG | -0.277 |
| CACAGACAACACGCACCCACACAGACACAGAGGGAAGGGGGUGGGAUGGGGACAGGGUGCACAGCAGGGCGGGGUAGGACCCCAGCCCCU | 1.66 |
| GUCCUGUGCUACACAUCGUAUGUACCGAAUCGGAAAAAAAGGAAAAAAAGGUUUUUGGAAAGUAUUAUGUUACGCCGUUCGGAUCUGCAC | -1.47 |
| CCUGUGCUACACAUCGUAUGUACCGAAUCGGUUUUUUUGGUUUUUUUGGGUUUUUUUGGGAAAGUAUUAUGUUACGCCGUUCGGAUCUGC | -1.05 |
| UCAAGUCCUGUGCUACACAUCGUAUGUACCGAAUCGGGUUUGGGAAAGGGAGGGAAAGUAUUAUGUUACGCCGUUCGGAUCUGCACUUCC | 1.16 |
| AGUCCUGUGCUACACAUCGUAUGUACCGAAUCGGGGAAAGGGGAAAGGGGAAAGGGGAAAGUAUUAUGUUACGCCGUUCGGAUCUGCACU | 0.423 |
| UAACUUUAGAGGAGGAUCUGAUGGAUAUGGCAGUGGACGUGGAUUUGGGGAUGGCUAUAAUGGGUAUGGAGGAGGACCUGGAGGUGGCAC | 0.248 |
| AAGUCCUGUGCUACACAUCGUAUGUACCGAAUCGGGAAAAAGGGAGGGUUUUUGGGAAAGUAUUAUGUUACGCCGUUCGGAUCUGCACUU | 0.29 |
| UGGCCCUGGUGGCAUGCGGGGAGGAAGAGGUGGCCACAUGGAUCGUGGUGGUCCCGGUGGAAUGUUCAGAGGUGGCCGUGGUGGAGACAG | 0.182 |

Sample 6 — technique: universal PBM; form: double-stranded DNA, one strand shown; sample: in vitro; concentration: not given; reading: higher = stronger binding
Target: Sal-like protein 4, full length isoform B (SALL4, Homo sapiens, UniProt Q9UJQ4-2, residues 1-616)
Setting: 8-mer, flanks averaged, mean of replicates
| Sequence | E-score |
| --- | --- |
| GGAGTTCA | -0.135 |
| GACATCCC | -0.231 |
| CTTAGTTC | -0.118 |
| AGTATTGA | 0.233 |
| ACGTCATC | -0.108 |
| AGAGGCGG | -0.249 |
| TAGTAGCA | 0.0727 |
| CAGCCAGG | -0.255 |
| AGCTTAGG | -0.162 |
| GACTGAGC | -0.288 |
| TCAGTTCA | 0.0166 |
| AGACAGAC | 0.0152 |
| GCGAAAGA | -0.0488 |
| AACGTAGA | 0.111 |
| AAACGCTC | -0.059 |
| CATCTAGG | -0.0539 |
| CTACACCC | -0.254 |
| ATGGCCCC | -0.324 |
| CAACATAA | 0.3 |
| TACACGTA | 0.164 |
| CCAGGACA | -0.194 |
| ATCACCGG | -0.215 |
| GCCTACAC | -0.0856 |
| AGGGTCTA | -0.0632 |
| TCGACAAA | 0.231 |
